Measured values collected from several papers.
Lines come from different studies, so protocols differ.
Organism: Pseudomonas aeruginosa

The MIC of O=[N+]([O-])[O-].O=[N+]([O-])[O-].O=[N+]([O-])[O-].[Ga+3] is reported as 7.8 µM (PAO1).
CC[C@H](C)[C@H](NC(=O)[C@H](CC(C)C)NC(=O)[C@@H](NC(=O)[C@@H](NC(=O)[C@@H](NC(=O)[C@H](CCCCN)NC(=O)[C@H](CCCCN)NC(=O)[C@H](CCCCN)NC(=O)[C@@H](N)CCCCN)C(C)C)[C@@H](C)CC)[C@@H](C)CC)C(=O)N[C@@H](CO)C(=O)N[C@@H](CC(C)C)C(=O)N[C@@H](CCCCN)C(=O)N[C@@H](CCCCN)C(=O)N[C@@H](CCCCN)C(=O)N[C@@H](CCCCN)C(=O)N[C@@H](Cc1ccccc1)C(=O)N[C@@H](CO)C(=O)N[C@@H](C)C(=O)N[C@@H](Cc1ccc(O)cc1)C(N)=O gave an MIC of 8 µM (broth microdilution; ATCC 27853; highest value reported).
CC[C@H](C)[C@H](NC(=O)CNC(=O)[C@H](CC(=O)O)NC(=O)[C@H](CCCNC(=N)N)NC(=O)[C@@H](NC(=O)[C@H](CC(N)=O)NC(=O)[C@H](CCCNC(=N)N)NC(=O)CNC(=O)[C@@H](NC(=O)[C@H](CCCCN)NC(=O)[C@H](CCC(=O)O)NC(=O)[C@@H](NC(=O)[C@H](CCCCN)NC(=O)[C@H](CCCCN)NC(=O)[C@H](Cc1ccccc1)NC(=O)[C@@H](NC(=O)[C@H](CCCCN)NC(=O)[C@H](Cc1c[nH]c2ccccc12)NC(=O)[C@@H](N)CCC(=O)O)[C@@H](C)CC)[C@@H](C)CC)C(C)C)C(C)C)C(=O)N[C@H](C(=O)N[C@@H](CCCCN)C(=O)N[C@@H](C)C(=O)NCC(=O)N1CCC[C@H]1C(=O)N[C@@H](C)C(=O)N[C@H](C(=O)N[C@@H](C)C(=O)N[C@H](C(=O)N[C@H](C(=O)NCC(=O)N[C@@H](CCC(N)=O)C(=O)N[C@@H](C)C(=O)N[C@@H](C)C(=O)N[C@H](C(=O)N[C@H](C(=O)N[C@H](C(=O)N[C@@H](CCCCN)C(N)=O)C(C)C)C(C)C)[C@@H](C)O)C(C)C)C(C)C)C(C)C)[C@@H](C)CC gave an MIC of over 64 µM (KCCM 11328, Mueller-Hinton broth; 16 h, 37 °C; growth inhibition over 99%).
With C[C@@H](O)[C@H]1C(=O)N2C(C(=O)O)=C(S[C@@H]3CN[C@H](C(=O)N(C)C)C3)[C@H](C)[C@H]12 the MIC was over 8 mg/L (1191191, multidrug-resistant).
CC[C@H](C)[C@H](NC(=O)[C@H](CCCCN)NC(=O)[C@H](CCCNC(=N)N)NC(=O)[C@H](CCCCN)NC(=O)[C@H](CCCNC(=N)N)NC(=O)[C@H](CCCCN)NC(=O)[C@@H](N)CCCNC(=N)N)C(=O)N[C@@H](CO)C(=O)N[C@@H](Cc1ccccc1)C(=O)N[C@@H](CC(C)C)C(=O)NCC(=O)N[C@@H](CO)C(=O)N[C@@H](CCCCN)C(=O)N[C@H](C(=O)N[C@H](C(=O)N[C@H](C(=O)N[C@@H](CC(C)C)C(=O)N[C@@H](CC(C)C)C(=O)N[C@@H](CCCCN)C(=O)N[C@@H](CCCNC(=N)N)C(N)=O)C(C)C)C(C)C)C(C)C gave an MIC of 16 µM (broth microdilution; ATCC 27853; highest value reported).
With C[C@@H](O)[C@H](NC(=O)[C@H](Cc1ccccc1)NC(=O)[C@H](Cc1c[nH]c2ccccc12)NC(=O)[C@H](Cc1ccccc1)NC(=O)[C@@H](NC(=O)[C@H](Cc1ccccc1)NC(=O)[C@H](CCCNC(=N)N)NC(=O)[C@@H](N)CCCNC(=N)N)[C@@H](C)O)C(=O)N[C@@H](Cc1ccccc1)C(=O)N[C@@H](CCCNC(=N)N)C(=O)N[C@@H](CCCNC(=N)N)C(N)=O the MIC was 128 µM (broth microdilution; 27853, Mueller-Hinton broth; 24 h, 37 °C, lowest concentration, 95% inhibition, with: BSA).
With O=C(O)c1cccc(C(=O)O)n1 the MIC was 16 mg/L (IMP-7 producer; 32 µg/mL, MIC of meropenem, with: meropenem).
With CC1(C)S[C@@H]2[C@H](NC(=O)C(C(=O)O)c3ccccc3)C(=O)N2[C@H]1C(=O)O (stereo partly drawn) the MIC was 12.5 mg/L (pvcA mutant).
N=C(N)NCCC[C@H](NC(=O)[C@@H](N)CCCNC(=N)N)C(=O)N[C@@H](Cc1c[nH]c2ccccc12)C(=O)N[C@@H](Cc1c[nH]c2ccccc12)C(=O)N[C@@H](Cc1ccccc1)C(=O)N[C@@H](CCC(N)=O)C(=O)N[C@@H](Cc1ccccc1)C(=O)N[C@@H](CCC(N)=O)C(=O)N[C@@H](Cc1ccccc1)C(=O)N[C@@H](CCCCN)C(N)=O has an MIC of 570 µM (broth microdilution, optical density).
With CC[C@H](C)[C@H](N)C(=O)N[C@@H](CCCNC(=N)N)C(=O)N[C@H](C(=O)N[C@@H](Cc1c[nH]c2ccccc12)C(=O)N[C@@H](Cc1ccccc1)C(=O)N[C@H](C(=O)N[C@@H](CCCCN)C(=O)N[C@H](C(=O)N[C@@H](CCCNC(=N)N)C(=O)N[C@@H](CCCCN)C(=O)N[C@@H](Cc1c[nH]c2ccccc12)C(=O)N[C@@H](CCCCN)C(=O)N[C@@H](C)C(=O)N[C@H](C(=O)N[C@@H](Cc1ccc(O)cc1)C(=O)N[C@@H](Cc1c[nH]cn1)C(=O)N[C@H](C(N)=O)[C@@H](C)O)[C@@H](C)CC)C(C)C)[C@@H](C)CC)C(C)C the MIC was 100 µM (broth dilution; ATCC 27853).
CC1(C)S[C@@H]2[C@H](NC(=O)[C@H](N)c3ccccc3)C(=O)N2[C@H]1C(=O)O gave an MIC of over 200 mg/L (fpvA mutant).
For CC[C@H](C)[C@H](NC(=O)[C@H](Cc1ccccc1)NC(=O)[C@@H](NC(=O)[C@H](Cc1ccccc1)NC(=O)[C@@H]1CCCN1C(=O)[C@@H](NC(=O)[C@H](C)N)[C@@H](C)CC)[C@@H](C)CC)C(=O)N[C@@H](Cc1c[nH]c2ccccc12)C(=O)N[C@@H](CCCNC(=N)N)C(=O)N[C@@H](CC(C)C)C(=O)N[C@@H](CC(C)C)C(=O)N[C@@H](CCCNC(=N)N)C(=O)N[C@@H](CCCCN)C(=O)NCC(N)=O, the MIC was 15 µM (broth microdilution; PAO1; 18 h, 37 °C).
With CC[C@H](C)[C@H](NC(=O)[C@H](CC(C)C)NC(=O)[C@H](CCCNC(=N)N)NC(=O)[C@@H](N)CCCNC(=N)N)C(=O)N[C@@H](CCCNC(=N)N)C(=O)N[C@@H](CCCCN)C(=O)N[C@@H](CC(C)C)C(=O)N[C@@H](CCCCN)C(=O)NCC(=O)N1CCC[C@H]1C(=O)N[C@@H](CCCCN)C(=O)N[C@H](C(=O)N[C@@H](Cc1ccc(O)cc1)C(=O)N[C@@H](CC(C)C)C(=O)N[C@@H](Cc1ccc(O)cc1)C(=O)N[C@@H](Cc1ccccc1)C(=O)N[C@@H](CCCCN)C(=O)N[C@@H](CC(C)C)C(=O)N[C@@H](CCC(N)=O)C(=O)N[C@@H](CC(C)C)C(=O)N[C@@H](CC(C)C)C(=O)N[C@@H](CCCCN)C(=O)N[C@@H](CCCCN)C(N)=O)[C@@H](C)CC the MIC was 16 µM (KCTC 1637, Mueller-Hinton broth; 24 h).
CC1(C)SC2C(NC(=O)C(NC(=O)C3=C(O)C(Cc4ccccc4)NC3=O)c3ccccc3)C(=O)N2C1C(=O)O (stereo not drawn) gave an MIC of 12.5 mg/L (pqsE mutant).
The MIC of CC[C@H](C)[C@H](NC(=O)[C@H](CC(C)C)NC(=O)[C@H](CCCNC(=N)N)NC(=O)[C@@H](N)CCCNC(=N)N)C(=O)N[C@@H](CCCNC(=N)N)C(=O)N[C@@H](CCCCN)C(=O)N[C@@H](CC(C)C)C(=O)N[C@@H](CCCCN)C(=O)NCC(=O)N1CCC[C@H]1C(=O)N[C@H](C(=O)N[C@H](C(=O)N[C@@H](Cc1ccc(O)cc1)C(=O)N[C@@H](CC(C)C)C(=O)N[C@@H](Cc1ccc(O)cc1)C(=O)N[C@@H](Cc1ccccc1)C(=O)N[C@@H](CCCCN)C(=O)N[C@@H](CC(C)C)C(=O)N[C@@H](CCC(N)=O)C(=O)N[C@@H](CC(C)C)C(=O)N[C@@H](CC(C)C)C(=O)N[C@@H](CCCCN)C(=O)N[C@@H](CCCCN)C(N)=O)[C@@H](C)CC)[C@@H](C)CC is reported as 32 µM (KCTC 1637, Mueller-Hinton broth; 24 h).
For CC(C)(C)Oc1ccc(CC2NC(=O)C(C(=O)NC(C(=O)NC3C(=O)N4C3SC(C)(C)C4C(=O)O)c3ccccc3)=C2O)cc1 (stereo not drawn), the MIC was 25 mg/L (pvcA mutant).
CC[C@H](C)[C@H](NC(=O)CNC(=O)[C@H](CC(=O)O)NC(=O)[C@H](CCCNC(=N)N)NC(=O)[C@@H](NC(=O)[C@H](CC(N)=O)NC(=O)[C@H](C)NC(=O)CNC(=O)[C@@H](NC(=O)[C@H](CCCCN)NC(=O)[C@H](CCC(=O)O)NC(=O)[C@@H](NC(=O)[C@H](CCCCN)NC(=O)[C@H](CCCCN)NC(=O)[C@H](Cc1ccccc1)NC(=O)[C@@H](NC(=O)[C@H](CCCCN)NC(=O)[C@H](Cc1c[nH]c2ccccc12)NC(=O)[C@@H](N)CCCNC(=N)N)[C@@H](C)CC)[C@@H](C)CC)C(C)C)C(C)C)C(=O)N[C@H](C(=O)N[C@@H](CCCCN)C(=O)N[C@@H](C)C(=O)NCC(=O)N1CCC[C@H]1C(=O)N[C@@H](C)C(=O)N[C@H](C(=O)N[C@@H](C)C(=O)N[C@H](C(=O)N[C@H](C(=O)NCC(=O)N[C@@H](CCC(N)=O)C(=O)N[C@@H](C)C(=O)N[C@@H](C)C(=O)N[C@H](C(=O)N[C@H](C(=O)N[C@H](C(=O)N[C@@H](CCCCN)C(N)=O)C(C)C)C(C)C)[C@@H](C)O)C(C)C)C(C)C)C(C)C)[C@@H](C)CC has an MIC of 16 µM (KCCM 11328, Mueller-Hinton broth; 16 h, 37 °C; growth inhibition over 99%).
The MIC of CC1(C)SC2C(NC(=O)C(NC(=O)C3=C(O)C(Cc4ccsc4)NC3=O)c3ccccc3)C(=O)N2C1C(=O)O (stereo not drawn) is reported as 50 mg/L (fpvB mutant).
The MIC of CC[C@H](C)[C@H](N)C(=O)N[C@@H](CC(C)C)C(=O)NCC(=O)N[C@@H](CCC(=O)O)C(=O)N[C@H](C(=O)N[C@@H](Cc1c[nH]c2ccccc12)C(=O)N[C@@H](CCCCN)C(=O)NCC(=O)N[C@H](C(=O)N[C@@H](CCCCN)C(=O)N[C@@H](CC(=O)O)C(=O)N[C@H](C(=O)N[C@@H](CC(C)C)C(N)=O)[C@@H](C)CC)[C@@H](C)CC)[C@@H](C)CC is reported as over 100 µM (broth microdilution; ATCC BAA-427, Mueller-Hinton broth; 16 h, 37 °C).
CC(C)(C)OCC1NC(=O)C(C(=O)NC(C(=O)NC2C(=O)N3C2SC(C)(C)C3C(=O)O)c2ccccc2)=C1O (stereo not drawn) has an MIC of 25 mg/L (pvdA mutant).
For CC[C@H](C)[C@H](NC(=O)[C@H](CC(C)C)NC(=O)[C@H](CCCCN)NC(=O)[C@@H](NC(=O)[C@H](C)NC(=O)[C@H](CCC(=O)O)NC(=O)[C@H](Cc1c[nH]cn1)NC(=O)[C@@H](NC(=O)[C@H](CCCCN)NC(=O)[C@H](CCC(N)=O)NC(=O)[C@H](Cc1ccccc1)NC(=O)[C@@H](N)C(C)C)[C@@H](C)CC)[C@@H](C)CC)C(N)=O, the MIC was over 128 µM (broth microdilution; 4891 resistant; 18 h, 37 °C).
